# Assay results gathered from unrelated publications.
# Each line is one published result; not all experiments were run side by side. “And” joins repeats or separate records; there may be more than shown.
# Target: Tyrosine-protein kinase Fer (FER, Homo sapiens, UniProt P16591)
SMILES,assay,conditions,how to read,endpoint,result
NC(=O)[C@@H](O)C[C@H]1CCc2sc3ncnc(O[C@H]4CC[C@H](N5CCOCC5)CC4)c3c21,"enzyme activity, inhibitor",10 µM,,inhibition,29%
Nc1ncc(-c2cc(-c3cnn(CC(F)(F)F)c3)ncc2F)nc1C(=O)NC1CNCC(F)C1 (stereo not shown),enzyme activity,1 µM,baseline: DMSO control,remaining activity,93.1%
CNC(=O)C[C@H](Cc1ccc(C#N)cc1)NC(=O)c1cc(-c2ccc(CN[C@H](C)c3ccc(C)cc3)o2)ccc1Cl,"enzyme activity, inhibitor",1 µM,,activity vs control,98%
C=CC(=O)Nc1cccc(-c2cnc3[nH]cc(C(=O)NC(C)(C)C)c3n2)c1,kinase activity,0.1 µM,,inhibition,14% and 12%
CNC1C[S+]2CC[S+]3CC[S+](C1)[Ru-4]321([N]=C=S)[n]2c3ccc(OC)cc3c3c4c(c5cc(F)c[n+]1c5c32)C(=O)NC4=O (stereo not shown),KinomeScan,0.1 µM,baseline: untreated,remaining binding,100%
C=CC(=O)N1CCc2ccc(-n3c(=O)ccc4cnc5ccc(-c6cnn(C)c6)cc5c43)cc21,KINOMEscan,1 µM,baseline: DMSO control,remaining binding,100%
C[C@H](c1ccccc1)N1C(=O)C2=Nc3cccc(Cl)c3CN2C1=S,"enzyme activity, inhibitor",1.5 µM,,inhibition,≥ 85%
COc1ccc(NC(=O)Nc2ccc3c(c2)C(=O)N(C(C)CO)CC(C)C(CN(C)Cc2ccc4c(c2)OCO4)O3)cc1 (stereo not shown),"kinase activity, KinaseProfiler","0.03 µM, species human",baseline: control,remaining activity,104%
Nc1ncc2c(n1)-c1c([nH]c3ccc(C4=CCOCC4)cc13)CCC2,"binding, competition with immobilised ligand",1 µM,,remaining binding,100%
C=CC(=O)N1Cc2nc(-c3cc(-c4cc(Cl)cnc4Cl)c(F)cc3F)n(-c3ccncn3)c2C1,"cell-free assay, inhibitor",1 µM,,inhibition,7.7%
COc1cc(Nc2nc(C)cc(-c3cnn4nc(OC)ccc34)n2)cc(C(F)(F)F)c1,inhibitor,1 µM,baseline: control,remaining activity,93%
Cc1cccc(O[C@H]2CCC[C@@H](C(C)CNCc3ccncc3)C2)c1 (relative stereo),"cell-free assay, inhibitor",1 µM,,inhibition,-3%
CC(C)=CC1OC(C)(C)C2C=C3C(=O)C(Cl)=CC(O)C3C3C(O)C4OC4C(=O)C132 (stereo not shown),"cell-free assay, competition with immobilised ligand",10 µM,,remaining binding,97%
COCC12C(=O)NC3C4(C(OC)CC1O)C1CC5(O)C(OC)C(O)C(OC(C)=O)(C1C5OC(=O)c1ccccc1)C3(O)C(OC)C24 (stereo not shown),"kinase activity, inhibitor, ProQinase kinase profiling",25 µM,baseline: control,remaining activity,98% and 97%
CN1CCN(Cc2ccc(-c3ccc(CO[C@H]4CCC[C@@H]4NC(=O)c4cc(-c5cnn(C)c5)cnc4N)cc3)cc2)CC1,"enzyme activity, inhibitor",0.1 µM,,inhibition,0%
CCn1cc(C(=O)O)c(=O)c2c(N)c(F)c(NC3CCCCC3)cc21,kinase activity,"0.1 µM, with: ATP at Km",,inhibition,-11.9%

# Some of these lines once more:
SMILES,assay,conditions,how to read,endpoint,result
CC(C)=CC1OC(C)(C)C2C=C3C(=O)C(Cl)=CC(O)C3C3C(O)C4OC4C(=O)C132 (stereo not shown),"cell-free assay, competition with immobilised ligand",10 µM,,remaining binding,97%
Cc1cccc(O[C@H]2CCC[C@@H](C(C)CNCc3ccncc3)C2)c1 (relative stereo),"cell-free assay, inhibitor",1 µM,,inhibition,-3%
